# Published values collected from several papers.
# Numbered parts are unrelated; each lists some results of a single study.

# Study 1 — method: protein-binding microarray; molecule type: double-stranded DNA, one strand shown; medium: in vitro; concentration: 940 nM top; notes: 60-bp whole probe; with: salmon DNA 0.4 mg/ml; reference: random background probes; reading: higher = stronger binding; all sequences stand within: GCCTAGCAC … GTCTTGATTCGCTTGACGCTGCTG
# Target: Interferon regulatory factor 5, full length, phosphomimetic (IRF5, Homo sapiens, UniProt Q13568-2, residues 1-514, S451D/S453D/S456D/S462D)
Oligonucleotide,fitted relative affinity [z-score]
TATCAGTTTAATATCTAAGAGTGCTAG,1.23
TCAGGTCTCCTTCTCCTTTAGTGCTAG,0.571
TTAGGACTGGCCTTTCGGTTAGTGCTA,0.267
TCACTCTTCTGGATCTCACTGTGCTAG,1.12
GAATGTTTTTCATTGTTTTTGTGCTAG,0.933
GAGTTTCCATTTTCTGAATGCGTGCTA,3.11
GACGGTTTCGGTTCCAGGACGTGCTAG,12.1
CTAAAACTCTTTATTTAAGCGTGCTAG,0.162
TTAGGTCTCCTATTCCTTTAGTGCTAG,0.0324
TCACTCTTCTGCTTCCTACTGTGCTAG,1.74
TCAAGCAAAAATGATTGACTGTGCTAG,-0.371
GGCGATATCAGACTGGAGACGTGCTAG,-0.936
TCACCTGTGCTATTTATAACTGTGCTA,0.162
TTAGGACTGAGACTGGGTTAGTGCTAG,-0.56
TTAGAGCTGAGTCTCGATTAGTGCTAG,2.25
TTAGGTTTCGAATATCGGTTAGTGCTA,6.73
TTAGGTCTCCTTCTCCTCTAGTGCTAG,0.38
GACCTCGTCTCTATCAAAAAGTGCTAG,0.63
GACGGGCTGGACTTTCGGGACGTGCTA,0.291
TTTACTTTCTACGTCTGATTGTGCTAG,2.7

# Study 2 — method: universal PBM; molecule type: double-stranded DNA, one strand shown; medium: in vitro; concentration: not given; reading: higher = stronger binding
# Target: Sal-like protein 4, full length isoform B (SALL4, Homo sapiens, UniProt Q9UJQ4-2, residues 1-616)
# Notes: 8-mer, flanks averaged, mean of replicates
# Construct (chain): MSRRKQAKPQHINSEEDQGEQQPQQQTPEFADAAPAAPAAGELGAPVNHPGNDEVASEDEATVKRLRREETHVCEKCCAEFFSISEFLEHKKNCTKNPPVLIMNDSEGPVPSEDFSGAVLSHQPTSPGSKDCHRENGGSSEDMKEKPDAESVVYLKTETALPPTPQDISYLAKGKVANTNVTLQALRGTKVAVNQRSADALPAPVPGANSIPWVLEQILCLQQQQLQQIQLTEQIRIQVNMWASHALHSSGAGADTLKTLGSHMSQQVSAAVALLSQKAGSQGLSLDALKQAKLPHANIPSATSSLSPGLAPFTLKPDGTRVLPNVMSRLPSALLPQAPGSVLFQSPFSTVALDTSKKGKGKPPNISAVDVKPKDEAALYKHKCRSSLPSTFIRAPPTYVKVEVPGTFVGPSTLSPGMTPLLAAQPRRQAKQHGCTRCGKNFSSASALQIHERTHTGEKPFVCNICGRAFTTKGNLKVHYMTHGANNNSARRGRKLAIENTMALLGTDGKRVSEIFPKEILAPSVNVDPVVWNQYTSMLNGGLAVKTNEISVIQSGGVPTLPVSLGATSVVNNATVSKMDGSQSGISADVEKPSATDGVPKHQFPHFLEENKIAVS
Oligonucleotide,E-score
CCACTAGG,-0.276
ATCGACTG,-0.135
CCTCCCTC,-0.164
ACGTATTA,0.322
CTGTGAAA,0.0845
TATTGAAA,0.394
CCATCTTA,-0.15
CCCGCCTA,-0.0135
GCAGCCAC,-0.209
AGGCCCCT,-0.294
GTTACTGA,0.0777
GTAGGCAA,0.00781
AGCAGAGA,-0.113
CCCAAGCC,-0.31
ACAAGTTG,0.039
GCGAAAAC,-0.104
ACCGGTTA,-0.0714
GACGTCGA,-0.0936
TAATAAAA,0.43
CATAGAAG,0.164
ATTGAGCC,-0.0145
TAGCCGCA,-0.252
CCCCTGAA,-0.0706
CACAGAAC,-0.0357
TACTCCCA,0.0593

# Study 3 — method: protein binding microarray; molecule type: double-stranded DNA, one strand shown; medium: in vitro; concentration: not given; reference: not given; reading: higher = stronger binding
# Target: Histone acetyltransferase KAT6A, winged helix 2, GST fusion (KAT6A, Homo sapiens, UniProt Q92794, residues 85-181)
# Notes: 8-mer, flanks averaged, mean of 2 arrays, mostly near background
# Target sequence (chain): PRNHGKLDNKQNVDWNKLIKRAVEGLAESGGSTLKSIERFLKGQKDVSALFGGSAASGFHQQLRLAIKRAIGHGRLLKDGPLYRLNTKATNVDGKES
Oligonucleotide,E-score
AACTTGAA,0.0804
CAGCAATG,-0.0168
CTCCAATC,-0.108
TGATATCA,0.015
TCGCGAGA,0.0713
GCGAGCAC,-0.013
CATGACCA,-0.105
CTATACCA,-0.0921
ACGCATTG,-0.0501
AAATTTAG,0.0355
GTAGGAGA,-0.206
AAAAGGGA,0.019
GCAGTTAC,-0.0383
AGAGCGAT,-0.0434
CTGCATTA,0.0532
CCACCCGC,0.166
ACGAGCCT,-0.0933
CATCGCCC,0.0572
GCAACACC,0.00987
CGTGTCAC,0.115
ATAGTCAA,-0.0616
ACCTCTAC,-0.129
AATAGTGA,-0.0338
AGCCGCCC,0.147
AAAGCCGC,0.0976

# Study 4 — method: RNA Bind-n-Seq; molecule type: RNA; medium: in vitro; concentration: not given; notes: RNA with constant flanks, ends assumed; reference: input RNA pool; reading: higher = stronger binding
# Target: RING finger protein unkempt homolog, zinc fingers 1-6, GST-SBP tag (UNK, Homo sapiens, UniProt Q9C0B0, residues 30-357)
# UniProt Q9C0B0, sequence (30-357, looked up): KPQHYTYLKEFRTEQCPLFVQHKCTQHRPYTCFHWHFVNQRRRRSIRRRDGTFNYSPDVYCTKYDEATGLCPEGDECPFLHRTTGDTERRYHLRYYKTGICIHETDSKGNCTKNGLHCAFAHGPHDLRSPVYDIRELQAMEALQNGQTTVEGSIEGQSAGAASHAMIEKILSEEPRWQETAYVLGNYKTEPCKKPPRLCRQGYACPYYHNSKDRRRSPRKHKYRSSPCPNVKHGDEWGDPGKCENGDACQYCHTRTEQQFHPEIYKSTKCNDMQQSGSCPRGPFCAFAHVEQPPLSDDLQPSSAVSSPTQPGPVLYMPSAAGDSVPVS
Oligonucleotide,bound/input enrichment
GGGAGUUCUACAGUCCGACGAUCAUGGGUGGAUUAUUUUCUCGAUGGAGGGCAAAACCUUCAACAGUAGAAGUUCUAGAAAAUACCGAUAAGGAAAUUCAAGCAUUGGAAGAAUUUAGAGAAAAAAAUCAGAGAUUGCAAAAACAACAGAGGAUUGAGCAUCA,0.774 ratio
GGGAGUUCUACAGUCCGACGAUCGAGGAGUUAGAUACCUUAUUAAGCAAUUUUUGUGAACUCUCCACUCCUGGAGGUGCCGAGAACCGUUAUGGGAAAAUAAACAUCUUACUUCAAACUUAUAUCAGCCGAGGAGAAAUGGACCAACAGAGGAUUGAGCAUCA,1.93 ratio
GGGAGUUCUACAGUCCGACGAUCCCCAUUAUUGAAUCUUCCACAAACAUCAAGUUUGGCUGUUUUCAAUGGUACUACCCUGAAUCCGCAGCCCAAUUCAAAGAUGCAGGCCUCAGUAUCUUCAAUAACAUUUGGAGUCAUGUUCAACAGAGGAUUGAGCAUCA,0.212 ratio
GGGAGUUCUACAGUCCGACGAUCGUUUUCAGUCUCUUCCUGUCCUGAGUUUUAUUAAGAAAUCCUUUUUUCUUUUUCUUCUUUUCCGGGGAUAUAUAGUAAUAUUAGUGUAAAGAUUUUAAUUUGGGCAACUUUGACUCUUAACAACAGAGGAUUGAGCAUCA,2.7 ratio
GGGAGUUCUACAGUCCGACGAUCCAGGCAGCUUUGGAAUUUCAUGGUGUGGCCCAAGAUUUGUCUCAGCAGUUGGACGGCUUAUCCGGGAUGUUGUGCGUAGAUGUAGCACCAGCUGAUGGAGCAUCGAUUCAGCAAACUUUACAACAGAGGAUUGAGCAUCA,0.199 ratio
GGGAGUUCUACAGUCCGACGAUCCAAAGUAUUGAACGUUCUCAUCGGAUUGCCACAGAGACUGACCAGAUUGGCUCAGAAAUCACCGAAGAGCUGGGGGAACAACGAGACCAGUUAGAACGUACCAAGAGUAGACUGGUAAACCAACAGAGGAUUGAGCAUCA,0.369 ratio
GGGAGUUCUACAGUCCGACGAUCACCUCCAGAAAGAAGAAUAUUGGCCCCUUGAAUUCUGGAAGUUCAUUGAAGAGUCUGAAAUCCGGGACUUAUUUCAAAUUUGGACAUGGCUAGUCGAGGCGCAACAAGACCCAACGGGCCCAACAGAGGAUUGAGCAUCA,0.27 ratio
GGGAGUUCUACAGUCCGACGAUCGCAGGAGACUGCGUUGCCCUGCUGCAGUCGUGUGAGCCUGCACUCGAUGCUGCCUUUGUGACCCGCCUGUCUUAGGCGGCAGCAUUGAAGUGGCUACCGGCUUCCCCAGACCUCUCUUCACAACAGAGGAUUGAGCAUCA,0.0609 ratio
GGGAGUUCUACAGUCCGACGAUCGUCCAGCGCCUGAAUGAACUUGAGGCAAUGACCAGAGUGAGAUUGGAUUUCUUGGAUCAACCCGCAAAAUUUUGGGAACUUCAAGGAUCUACUCUGAAGAUCCCUGUGGUAGAGAGAAAACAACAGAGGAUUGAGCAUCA,0.311 ratio
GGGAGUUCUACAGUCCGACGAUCCUCGAUUAUCUCAAGAGAGAGUGUGAAGCAAAGAGUGAAGUGAUGUUUUUUGCAGAAGCUACCCGUCACUUGGAAGAGAAGAAGAAAAAACGAAAAAACAGGAAAAGGAUGAUUUUAACACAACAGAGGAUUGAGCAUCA,0.287 ratio
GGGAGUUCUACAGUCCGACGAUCCCUGCCUAAGGCAAAGAAAUAUAAGACAAGACUAUGAUAUCAAUGAAUGUGGGUUAAGUAACCGAUUUCCAGCUAAAUUGGUCUAAAAAAGAAUAUUAAGUGUGGACAGACCUAUUUCAACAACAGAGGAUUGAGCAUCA,0.205 ratio

# Study 5 — method: RNAcompete; molecule type: RNA; medium: in vitro; concentration: 20 nM; notes: 7-mer, probes averaged, single round; reference: mean of 7-mers; reading: higher = stronger binding
# Target: PABPC1L2, full length, GST fusion (mouse, UniProt A0ABA7IW68)
# Construct (chain): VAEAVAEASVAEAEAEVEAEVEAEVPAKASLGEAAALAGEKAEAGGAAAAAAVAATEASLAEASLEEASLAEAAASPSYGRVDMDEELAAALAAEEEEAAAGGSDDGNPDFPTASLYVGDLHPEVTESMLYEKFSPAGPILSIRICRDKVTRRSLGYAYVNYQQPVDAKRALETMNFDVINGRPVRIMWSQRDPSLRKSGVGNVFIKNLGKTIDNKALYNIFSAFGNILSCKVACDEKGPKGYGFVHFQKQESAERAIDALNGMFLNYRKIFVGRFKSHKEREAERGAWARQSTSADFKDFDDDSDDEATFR
Oligonucleotide,7-mer Z-score
UGAAGGA,0.0243
AUUUUAA,-0.0971
ACGGCAC,0.137
CUGGUUG,-0.238
AUUCAAU,-0.0047
UCUCUUC,-0.456
GAAGCGU,-0.253
UCGACGC,-0.228
UGAACAG,-0.0228
AGACUGG,-0.122
UUGUACU,-0.351
GUUACUA,-0.215
AACGUUU,-0.28
UCAUCUA,-0.204
CCGGUAA,0.151
CCGCUAU,-0.331
UACCAUG,-0.168
CGCACCA,-0.0355
ACUAUCA,-0.142
ACCUGCG,-0.113
AACUAUA,0.285
CGCCUCU,-0.383
CCGUACU,-0.454
AGUGCGA,-0.00652
CCAUAGG,-0.0826

# Excerpt of the above (study 5):
Oligonucleotide,7-mer Z-score
AACUAUA,0.285
CCGGUAA,0.151
CCGCUAU,-0.331
ACCUGCG,-0.113
AGUGCGA,-0.00652
UACCAUG,-0.168
AUUCAAU,-0.0047
CGCACCA,-0.0355
CGCCUCU,-0.383
UCGACGC,-0.228
CCGUACU,-0.454
UGAAGGA,0.0243
AGACUGG,-0.122
GUUACUA,-0.215
CCAUAGG,-0.0826
